# Experimental data collected from several papers.
# “And” joins repeats or separate records; there may be more than shown. ± marks the error that the study gave.
# rep main protease: Replicase polyprotein 1ab, main protease (rep, Severe acute respiratory syndrome coronavirus 2, UniProt P0DTD1)
SMILES,tested on,test,system,conditions,how to read,quantity,value
COC(=O)C=Cc1ccccc1,rep main protease,"reporter gene (mKate2), inhibitor",,20 µM,,inhibition,-0.598%
Cc1cnoc1C(=O)NC[C@@H]1CC2(CCOCC2)CN1C(=O)c1cc(F)cc(C(N)=O)c1,rep main protease,"enzyme activity, inhibitor",,"5 µM, run 2",,inhibition,14.1%
Nc1ncnc2c([C@@H]3N[C@H](CO)[C@@H](O)[C@H]3O)c[nH]c12,Marburg virus,viral RNA in cell lysate,"HeLa, Musoke","1.6 µM, 1 h",,inhibition,37%
CCOC(=O)[C@H](CCc1ccccc1)N[C@H]1CS[C@H](c2cccs2)CN(CC(=O)O)C1=O,rep main protease,"viral replication, Gluc reporter",SARS-CoV-2,20 µM,,inhibition,1.54%
Nc1ncnc2c1ncn2[C@H]1C[C@H](O)[C@@H](COP(=O)(O)OP(=O)(O)OP(=O)(O)O)O1,"Gag-Pol polyprotein, reverse transcriptase (gag-pol, Human immunodeficiency virus type 1 group M subtype B, UniProt P04585, K653A)",substrate,,"K66A mutant, added: matched T:A primer template",,Km,0.0506 ± 0.0116 µM
CCN(CC)c1nc(C)cc(OP(=S)(OC)OC)n1,"uncharacterized protein (Anopheles coluzzii, UniProt A0A6E8VQK1)","enzyme activity, inhibitor",Sf9 cell homogenate,"4.587 µM, 0.1667 h, added: α-naphthyl acetate substrate",baseline: no inhibitor,remaining activity,112%
Cn1cc(C(=O)N2Cc3ccccc3C[C@H]2CNC(=O)c2cccc3[nH]ncc23)nn1,rep main protease,"enzyme activity, inhibitor",,"5 µM, mean of runs",,inhibition,12.8%
CN(C)c1ccc(C2Nc3ccc4ccccc4c3C3=C2C(=O)CC(C)(C)C3)cc1Br (stereo not shown),rep main protease,"viral replication, mKate2 reporter",SARS-CoV-2,20 µM,,inhibition,0.195%
CSCC[C@H](NC(=O)[C@H](CCCNC(=N)N)NC(=O)[C@H](Cc1ccccc1)NC(=O)[C@H](CS)NC(=O)[C@H](C)NC(=O)[C@@H](NC(=O)[C@@H](NC(=O)[C@H](C)NC(=O)[C@H](CCCNC(=N)N)NC(=O)[C@H](CCCNC(=N)N)NC(=O)[C@H](CCCNC(=N)N)NC(=O)[C@H](CCC(N)=O)NC(=O)[C@H](CCCCN)NC(=O)[C@H](CO)NC(=O)[C@H](CC(C)C)NC(=O)[C@H](CC(C)C)NC(=O)[C@H](CCCCN)NC(=O)[C@H](Cc1c[nH]cn1)NC(=O)[C@H](Cc1c[nH]c2ccccc12)NC(=O)[C@@H](NC(=O)[C@H](C)NC(=O)[C@H](CCCCN)NC(=O)[C@H](CCCCN)NC(=O)[C@H](CO)NC(=O)[C@H](CCCCN)NC(C)=O)C(C)C)C(C)C)C(C)C)C(=O)N[C@H](C(=O)N1CCC[C@H]1C(=O)N[C@@H](CC(C)C)C(=O)N[C@@H](Cc1ccc(O)cc1)C(=O)N[C@@H](CC(N)=O)C(N)=O)[C@@H](C)O,calmodulin 76-148 sites III and IV,"calcium binding, Tyr fluorescence titration",,"12 µM, pH 7.4, 22 °C, added: 6 µM calmodulin",,apparent ΔG2,-18.26 ± 0.13 kcal/mol
CNC(=O)[C@@H](NC(=O)[C@H](CC(C)C)[C@H](O)C(=O)NO)C(C)(C)C,snake venom metalloproteinase,"proteolytic activity, inhibitor","Daboia russelii, venom MH",added: azocasein,,IC50,147 nM and 168 nM
CC[C@H](C)[C@H](NC(=O)[C@H](CC(C)C)NC(=O)[C@H](Cc1c[nH]c2ccccc12)NC(=O)[C@H](CCC(N)=O)NC(=O)[C@@H](NC(=O)[C@H](Cc1ccccc1)NC(=O)[C@H](C)NC(=O)[C@H](CCCCNC(=O)COCCOCCNC(=O)COCCOCCNC(=O)CC[C@H](NC(=O)CCCCCCCCCCCCCCCCCCC(=O)O)C(=O)O)NC(=O)[C@H](CCC(N)=O)NC(=O)[C@H](C)NC(=O)[C@@H](NC(=O)[C@H](CCCCN)NC(=O)[C@H](CC(=O)O)NC(=O)[C@H](CC(C)C)NC(=O)C(C)(C)NC(=O)[C@@H](NC(=O)[C@H](CO)NC(=O)[C@H](Cc1ccc(O)cc1)NC(=O)[C@H](CC(=O)O)NC(=O)[C@H](CO)NC(=O)[C@@H](NC(=O)[C@H](Cc1ccccc1)NC(=O)[C@@H](NC(=O)CNC(=O)[C@H](CCC(=O)O)NC(=O)C(C)(C)NC(=O)[C@@H](N)Cc1ccc(O)cc1)[C@@H](C)O)[C@@H](C)O)[C@@H](C)CC)[C@@H](C)CC)C(C)C)C(=O)N[C@@H](C)C(=O)NCC(=O)NCC(=O)N1CCC[C@H]1C(=O)N[C@@H](CO)C(=O)N[C@@H](CO)C(=O)NCC(=O)N[C@@H](C)C(=O)N1CCC[C@H]1C(=O)N1CCC[C@H]1C(=O)N1CCC[C@H]1C(=O)N[C@@H](CO)C(N)=O,,,healthy subjects,all MAD doses,,subjects with abdominal distension,14.3%
O=C(N[C@@H]1CCCC[C@]12CCCN(C(=O)c1cc[nH]c(=O)c1)C2)c1cncc2ccccc12,rep main protease,"enzyme activity, inhibitor",,"5 µM, run 1",,inhibition,12.9%
Cn1cnc(Cn2c(=O)[nH]/c(=N\c3cc4cn(C)nc4cc3Cl)n(Cc3cc(F)c(F)cc3F)c2=O)n1,,,"human, normal renal function","oral, 375 mg, vessel puncture site haemorrhage TEAE, Moderate severity",,patients with adverse event,0%

# Some of these lines once more:
SMILES,tested on,test,system,conditions,how to read,quantity,value
CN(C)c1ccc(C2Nc3ccc4ccccc4c3C3=C2C(=O)CC(C)(C)C3)cc1Br (stereo not shown),rep main protease,"viral replication, mKate2 reporter",SARS-CoV-2,20 µM,,inhibition,0.195%
